Published values from different studies.
Parts stem from different laboratories: compare values within a part only. Changes are numbered by the printed parent chain.
Chain of UniProt Q9M1R4 (whole entry, looked up): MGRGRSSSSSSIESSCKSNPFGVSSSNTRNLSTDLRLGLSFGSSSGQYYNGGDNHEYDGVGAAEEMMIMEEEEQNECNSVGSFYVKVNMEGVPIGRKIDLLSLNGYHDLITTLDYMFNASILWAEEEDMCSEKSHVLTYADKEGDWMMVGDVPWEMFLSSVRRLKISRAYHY
Chain of UniProt Q8H174 (whole entry, looked up): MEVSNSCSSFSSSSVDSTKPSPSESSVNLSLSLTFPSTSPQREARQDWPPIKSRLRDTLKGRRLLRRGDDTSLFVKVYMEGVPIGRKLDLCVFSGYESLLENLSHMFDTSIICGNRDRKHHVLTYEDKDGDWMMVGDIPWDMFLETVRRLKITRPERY
Chain of UniProt P93830 (whole entry, looked up): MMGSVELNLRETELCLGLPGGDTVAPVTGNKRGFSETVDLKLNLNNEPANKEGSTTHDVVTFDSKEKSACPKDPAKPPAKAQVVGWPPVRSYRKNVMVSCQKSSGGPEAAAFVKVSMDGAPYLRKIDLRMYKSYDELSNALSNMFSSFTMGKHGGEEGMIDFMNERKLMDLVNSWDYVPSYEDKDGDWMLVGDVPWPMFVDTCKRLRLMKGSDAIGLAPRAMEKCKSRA
Chain of UniProt Q93WC4 (whole entry, looked up): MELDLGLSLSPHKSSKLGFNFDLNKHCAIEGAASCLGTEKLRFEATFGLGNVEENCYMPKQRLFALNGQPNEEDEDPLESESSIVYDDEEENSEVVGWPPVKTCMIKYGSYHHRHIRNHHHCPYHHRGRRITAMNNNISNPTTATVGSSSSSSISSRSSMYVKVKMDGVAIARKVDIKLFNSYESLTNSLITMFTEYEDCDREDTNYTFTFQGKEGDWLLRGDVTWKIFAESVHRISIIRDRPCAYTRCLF

Block 1
Sequence: B1 (IAA12)
Method: two-hybrid
Direction: higher = firmer interaction
B1: IAA12 (Arabidopsis thaliana, UniProt Q38830); chain MRGVSELEVGKSNLPAESELELGLGLSLGGGAWKERGRILTAKDFPSVGSKRSAESSSHQGASPPRSSQVVGWPPIGLHRMNSLVNNQAMKAARAEEGDGEKKVVKNDELKDVSMKVNPKVQGLGFVKVNMDGVGIGRKVDMRAHSSYENLAQTLEEMFFGMTGTTCREKVKPLRLLDGSSDFVLTYEDKEGDWMLVGDVPWRMFINSVKRLRIMGTSEASGLAPRRQEQKDRQRNNPV
| partner | setting | scale | positive tests |
| --- | --- | --- | --- |
| IAA31 (Arabidopsis thaliana, UniProt Q8H174) | – | relative to: out of 2 tests | 2 |
| IAA17 (Arabidopsis thaliana, UniProt P93830) | – | relative to: out of 4 tests | 2 |
| IAA30 (Arabidopsis thaliana, UniProt Q9M1R4) | weak activation fusion | relative to: out of 4 tests | 3 |
| IAA29 (Arabidopsis thaliana, UniProt Q93WC4) | – | relative to: out of 4 tests | 0 |

Block 2
Target: ABI1, truncated, D143A, DHFR fusion (Arabidopsis thaliana)
Method: DHFR PCA, deep sequencing
Medium: yeast
Notes: methotrexate growth selection, single substitutions
Together with: (+)-ABA 0.0091 µM
Relative to: wild-type fitted maximum
Direction: higher = stronger binding
Starting sequence: PYL1, truncated, DHFR fusion (Arabidopsis thaliana); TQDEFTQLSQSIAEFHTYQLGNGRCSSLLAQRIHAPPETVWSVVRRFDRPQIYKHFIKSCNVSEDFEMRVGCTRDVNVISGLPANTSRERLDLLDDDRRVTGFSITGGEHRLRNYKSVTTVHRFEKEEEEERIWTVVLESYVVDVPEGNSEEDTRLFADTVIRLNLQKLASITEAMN
| Change | relative binding score [%] |
| --- | --- |
| N149M | 47.8 |
| E139H | -12.6 |
| E127A | 40.7 |
| R69A | 19.1 |
| E109C | 10.7 |
| E14V | 1.66 |
| S104L | -4.22 |
| L28Y | -0.431 |
| C60W | 2.67 |
| E147A | 19.1 |
| D159H | -4.82 |
| R98Y | -6.53 |
| S117H | -9.75 |

Block 3
Target: MAFG, bZIP domain (human)
Method: DHFR protein complementation
Medium: yeast
Notes: single substitutions, most at no-binding floor
Relative to: wild-type JUN-FOS pair
Direction: higher = stronger binding
Starting sequence: JUN, bZIP domain (human); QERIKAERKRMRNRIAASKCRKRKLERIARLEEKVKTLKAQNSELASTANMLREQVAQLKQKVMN; partner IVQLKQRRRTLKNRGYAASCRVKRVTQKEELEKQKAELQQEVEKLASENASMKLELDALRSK
| Change | binding fitness [natural log] |
| --- | --- |
| S47W | -1.46 |
| E32L | -1.4 |
| M51E | -1.12 |
| A49T | -1.47 |
| T48M | -1.43 |
| L38C | -1.26 |
| T37E | -1.21 |
| A40H | -1.54 |
| S47L | -1.5 |
| E44M | -1.49 |
| E54N | -1.45 |
| L52I | -1.52 |
| A57V | -1.29 |
| A57H | -1.42 |
| A46I | -1.38 |
| R53L | -1.58 |
| L45H | -1.48 |
| I28G | -1.49 |
| Q55Y | -1.48 |
| A49R | -1.43 |
| L52T | -1.52 |
| M51L | -1.46 |
| Q41N | -1.18 |

Block 4
Target: CCNB2, cyclin fold, Cln2 fusion (human)
Method: yeast growth competition, sequencing
Medium: yeast
Notes: weak parent motif
Relative to: not given
Direction: higher = stronger binding
Starting sequence: E2F8 docking peptide (human); FVPQRKLEVSTED; partner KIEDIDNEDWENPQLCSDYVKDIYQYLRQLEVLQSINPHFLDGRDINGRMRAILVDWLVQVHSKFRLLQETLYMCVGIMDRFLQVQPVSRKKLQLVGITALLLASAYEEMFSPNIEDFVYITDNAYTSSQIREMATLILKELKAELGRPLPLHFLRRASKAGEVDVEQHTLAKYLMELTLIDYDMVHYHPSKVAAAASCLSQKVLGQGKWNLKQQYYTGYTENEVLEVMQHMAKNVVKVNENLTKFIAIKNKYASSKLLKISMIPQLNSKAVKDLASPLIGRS
| Change | normalised enrichment score |
| --- | --- |
| FVPQKKLELSTED [R5K V9L] | -0.0792 |
| FVPQRKLEVSTEA [D13A] | -0.211 |
| FVPQRKLEFSTED [V9F] | -0.0221 |
| FVPARKLEVSTED [Q4A] | -0.763 |
| FVPQKKLEVSTED [R5K] | 0.0275 |
| FVPQRALEVSTED [K6A] | -0.293 |
| AVPQRKLEVSTED [F1A] | -0.129 |
| FVPQRKLAVSTED [E8A] | -0.186 |
| FVPQAKAEVSTED [R5A L7A] | -0.301 |
| FVPQRKLEVATED [S10A] | -0.357 |
| FVAQRKLEVSTED [P3A] | 0.05 |
